Measured values pooled from the literature.
A part holds a random share of what one study measured. Substitutions count along the parent as printed.

Set 1
Target: Ras GTPase-activating protein-binding protein 1, RRM domain (G3BP1, Homo sapiens, UniProt Q13283)
UniProt Q13283, sequence (whole entry, looked up): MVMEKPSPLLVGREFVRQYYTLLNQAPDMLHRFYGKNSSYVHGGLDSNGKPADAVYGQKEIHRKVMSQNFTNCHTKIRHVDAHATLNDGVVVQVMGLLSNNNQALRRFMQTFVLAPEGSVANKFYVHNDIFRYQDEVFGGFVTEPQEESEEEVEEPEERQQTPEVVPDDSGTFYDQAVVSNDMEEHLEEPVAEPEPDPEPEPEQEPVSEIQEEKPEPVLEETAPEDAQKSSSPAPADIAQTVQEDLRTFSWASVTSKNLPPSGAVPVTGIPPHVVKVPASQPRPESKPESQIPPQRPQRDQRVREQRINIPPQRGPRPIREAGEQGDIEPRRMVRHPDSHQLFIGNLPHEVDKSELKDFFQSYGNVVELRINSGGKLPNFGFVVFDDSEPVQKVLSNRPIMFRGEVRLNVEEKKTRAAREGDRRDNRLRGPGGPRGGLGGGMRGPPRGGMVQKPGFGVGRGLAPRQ
Method: RNA Bind-n-Seq
Molecule type: RNA
Medium: in vitro
Tested at: 1 µM
Setting: whole 134-nt RNA, ends assumed
Added: 150 mM KCl
Reference: input library
Reading: higher = stronger binding
Constant ends, left off below: GGGAGUUCUACAGUCCGACGAUC … UGGAAUUCUCGGGUGUCAAGG
The log2 enrichment of `AGUCCUGUGCUACACAUCGUAUGUACCGAAUCGGGCCCCGGGGCCCCGGCCCCGGGGAAAGUAUUAUGUUACGCCGUUCGGAUCUGCACU` is reported as -1.2.
`UAACUUUAGAGGAGGAUCUGAUGGAUAUGGCCGUGGACGUGGAUUUGGGGAUGGCUAUAAUGGGUAUGGAGGAGGACCUGGAGGUGGCAA` gave a log2 enrichment of -0.699.
`UAACUUUAGAGGAGGAUCUGAUGGAUAUGGCAGUGGACGUGGAUGUGGGGAUGGCUAUAAUGGGUAUGGAGGAGGACCUGGAGGUGGCAA` has a log2 enrichment of -0.578.
The log2 enrichment of `AAGUCCUGUGCUACACAUCGUAUGUACCGAAUCGGGGAGGGGAGGGGAAAAAGGGGAAAGUAUUAUGUUACGCCGUUCGGAUCUGCACUU` is reported as 0.814.
`UACUCAGCACAGAAAUUCAGGAGACACAGACAAGUUCUUCCACGAUGUCGUACAGACGAGAACUAGAGAAAUACCGUGACCUGGAUGAAG` has a log2 enrichment of 0.0987.
The log2 enrichment of `CACAGACAACACGCACCCACACAGACACAGAGGGAAGGGGUUGGGAUGGGGACAGGGUGCACAGCAGGGAGGGGUAGGACCCCAGCCCCU` is reported as -0.336.
`AGUCCUGUGCUACACAUCGUAUGUACCGAAUCGGCCCCCGGGCCCCCGGGCCCCCGGAAAGUAUUAUGUUACGCCGUUCGGAUCUGCACU` gave a log2 enrichment of -0.603.
With `CUCAAGUCCUGUGCUACACAUCGUAUGUACCGAAUCGGGGAGGGAGGGGAGGGGAAAGUAUUAUGUUACGCCGUUCGGAUCUGCACUUCC` the log2 enrichment was 0.885.
The log2 enrichment of `UGGGAGGUGGAUUUUGUUUAUUUUUUUAGCUCAUUUCCAGGGGUGGGAAUUUUUUUUUAAUAUGUCUCAUGAAUAAAGUUGUUUUUGAAA` is reported as 0.96.

Set 2
Target: RNA binding protein fox-1 homolog 2, RRM domain, GST-SBP tag (RBFOX2, Homo sapiens, UniProt O43251-10, residues 100-194)
Method: RNA Bind-n-Seq
Molecule type: RNA
Medium: in vitro
Tested at: 365 nM
Setting: natural RNA segment, single round, ends assumed
Reference: no-protein control
Reading: higher = stronger binding
Constant ends, left off below: GGGAGUUCUACAGUCCGACGAUC … UGGAAUUCUCGGGUGCCAA
Residues (chain): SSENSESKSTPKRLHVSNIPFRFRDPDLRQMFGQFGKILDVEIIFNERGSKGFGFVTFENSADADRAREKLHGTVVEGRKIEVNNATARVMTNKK
For `UGUGAUUGAGGGGUGUUCUGCCCUGCCUCCACUGUCACAGCCUUUAAUAAAGAUGUGAAUCUUGAAAGCCUGAUGCUCCAAUCACAGACUCUGCUCAGCAUCCCCAGAGG`, “RBNS enrichment (R)” read 0.725.
`AGGAGUCGGUAGGACUGUGCCUGUGCCUCCCUCAGCGGGGCCCUGGGCGGGGUUCCAAGGCCUGCGAGCUGGGAAAGGACAGAUGAGGGGACCUCGUGCCUUCUUGCUGU` — result for “RBNS enrichment (R)”: 0.35.
Under “RBNS enrichment (R)”, `GCUGAGGGAGCCUGGCCCCAUGGUCAGCCCUAGGGUGGAGAGCCACCAAGAGGGACGCCUGGGGGUGCCAGGACCAGUCAACCUGGGCAAAGCCUAGUGAAGGCUUCUCU` is recorded as 0.269.
Under “RBNS enrichment (R)”, `AGUUUUGUACUCACCAUAUAUGGAUCAUUCCUCAUGUAUAAUGUGCCCCAAAUGCAGCUUCAUUUUCCAGAUACCUUGACGCAGAAUAAAUUUUUUCAUCAUUUAGGUGC` is recorded as 0.39.
`CAUUUAGUAUUAUCAUAAAGUAUUAAUACUUUGUCAUAAAGUCCUCCUUGAGCCCAGGGACCAUGGAAGUCAGCUAGAAGAGCCCUGAGCAAGGAGCAAGGACUUGGGCU` — result for “RBNS enrichment (R)”: 0.518.
Under “RBNS enrichment (R)”, `GCUCACUUUCACUGAGGAUGCUGUCCUCUGAUUUAGCUGCUGCCUCCAGCCUCUGGCUUGAGAACUUACUAAAGGCACUUCCUUCCUGUUAAACCCCUGUUAACUCUCCA` is recorded as 0.314.
`UGGGAAGAGACGCCUUCAUUUGGGACGAAACUGGAGAUGUUAUAAGCAGAAACUCUGAAGAAAAGGAUUAUUUAAAGGACUCUAUGGGGAGAAAGAGAAGGCAACUCCUC`: “RBNS enrichment (R)” 0.467.
`UUAUUAUUUUUAAUUUUCUAAAUUAAAUAAAAGAAAGAAUGCAAACCAGGAGUGAAUUUCAAAUGAGAUGUAAUCGACUUUAUAUCUUAGUCACGGAGUUGCCAUGGCAU` — result for “RBNS enrichment (R)”: 0.336.

Set 3
Target: Histone acetyltransferase KAT6A, winged helix 1, GST fusion (KAT6A, Homo sapiens, UniProt Q92794, residues 1-85)
Method: protein binding microarray
Molecule type: double-stranded DNA, one strand shown
Medium: in vitro
Tested at: not given
Setting: 8-mer, flanks averaged, mean of 2 arrays, mostly near background
Reference: not given
Reading: higher = stronger binding
Residues (chain): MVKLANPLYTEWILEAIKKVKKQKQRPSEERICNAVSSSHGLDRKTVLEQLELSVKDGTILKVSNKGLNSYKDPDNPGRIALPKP
`CTGCGCGC` has an E-score of 0.41.
`GACTTACA` has an E-score of -0.142.
`ACGGTTAT` gave an E-score of 0.167.
`CGAGTGGC` has an E-score of -0.0139.
The E-score of `ATCTACCG` is reported as 0.119.
`ATCACCTG` has an E-score of -0.225.
`AGTAACCA` has an E-score of -0.0646.
`TACGTGAA` has an E-score of -0.00845.
`GCCTGTCA` has an E-score of -0.122.
`AACTGAAA` has an E-score of -0.138.
`CAGAAAAA` gave an E-score of -0.215.
With `ATCCTCGC` the E-score was 0.0914.
For `AGTTTTCG`, the E-score was -0.211.
The E-score of `ATACGCCG` is reported as 0.4.
For `ACAGTCAG`, the E-score was -0.0281.
With `CTACACTC` the E-score was -0.0844.
`AAGATGTA` gave an E-score of -0.178.
With `CAAATCCG` the E-score was 0.0766.
For `AGTCGTAA`, the E-score was -0.121.
The E-score of `ACATTCCG` is reported as 0.102.
`CAGATGAA` gave an E-score of -0.211.
`ATGCGTAA` has an E-score of 0.309.

Set 4
Target: Protein C-ets-1 (ETS1, Homo sapiens, UniProt P14921, residues 1-441, Y397A, full length assumed)
Method: protein-binding microarray
Molecule type: double-stranded DNA, one strand shown
Medium: in vitro
Tested at: not given
Setting: k-mer, scored over probes, only values ≥0.25
Reading: higher = stronger binding
Target sequence (chain): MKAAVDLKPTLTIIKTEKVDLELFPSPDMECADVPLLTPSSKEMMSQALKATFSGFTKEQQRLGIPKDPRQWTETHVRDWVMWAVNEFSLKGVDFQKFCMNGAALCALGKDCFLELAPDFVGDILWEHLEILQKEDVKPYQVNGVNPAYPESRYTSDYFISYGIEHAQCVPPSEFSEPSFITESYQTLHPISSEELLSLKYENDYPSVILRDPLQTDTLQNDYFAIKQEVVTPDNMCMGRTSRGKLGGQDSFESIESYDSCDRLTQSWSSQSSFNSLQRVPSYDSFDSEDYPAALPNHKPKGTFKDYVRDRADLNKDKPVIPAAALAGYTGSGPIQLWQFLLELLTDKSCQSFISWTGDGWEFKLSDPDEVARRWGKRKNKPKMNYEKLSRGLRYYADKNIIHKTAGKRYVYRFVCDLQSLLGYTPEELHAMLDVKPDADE
`CGGATATC` has an E-score of 0.33.
With `ACATAATG` the E-score was 0.299.
With `GTCGACAA` the E-score was 0.323.
`CAAATCGG` gave an E-score of 0.306.
`ACGTTTTG` gave an E-score of 0.257.
`ACAGGAAG` gave an E-score of 0.299.
`CGACGGAC` has an E-score of 0.274.
`AGTGACAC` gave an E-score of 0.269.
`TACTACGA` gave an E-score of 0.275.
`TGCCAAAA` gave an E-score of 0.35.
For `TATGTGCA`, the E-score was 0.263.
For `CATGCATG`, the E-score was 0.342.
With `ACCGGAAG` the E-score was 0.473.
For `CAATCATA`, the E-score was 0.268.
With `GTGCCAAA` the E-score was 0.295.
`GCAAACGA` has an E-score of 0.316.

Set 5
Target: ABI1, truncated, D143A, DHFR fusion (Arabidopsis thaliana)
Method: DHFR PCA, deep sequencing
Medium: yeast
Setting: methotrexate growth selection, single substitutions
Added: (+)-ABA 710 µM
Reference: wild-type fitted maximum
Reading: higher = stronger binding
Parent: PYL1, truncated, DHFR fusion (Arabidopsis thaliana); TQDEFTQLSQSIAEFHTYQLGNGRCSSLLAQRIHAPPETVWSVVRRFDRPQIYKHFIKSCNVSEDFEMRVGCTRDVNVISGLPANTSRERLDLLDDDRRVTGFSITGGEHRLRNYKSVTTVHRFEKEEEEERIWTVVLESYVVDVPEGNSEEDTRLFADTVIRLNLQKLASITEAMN; partner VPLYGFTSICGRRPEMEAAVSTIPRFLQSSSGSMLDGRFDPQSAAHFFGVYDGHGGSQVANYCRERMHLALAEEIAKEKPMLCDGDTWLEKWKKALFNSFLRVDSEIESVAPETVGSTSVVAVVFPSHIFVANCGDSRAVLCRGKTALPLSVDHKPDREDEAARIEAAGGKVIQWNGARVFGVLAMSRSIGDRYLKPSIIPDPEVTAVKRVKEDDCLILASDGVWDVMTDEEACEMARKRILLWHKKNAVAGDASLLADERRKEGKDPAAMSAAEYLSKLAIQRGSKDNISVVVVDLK
`D144L`: “relative binding score” 77.7%.
Under “relative binding score”, `N61E` is recorded as 103%.
`I33L` — result for “relative binding score”: 67.7%.
`S27V`: “relative binding score” 24.1%.
`F5Y`: “relative binding score” 107%.
For `R155M`, “relative binding score” read 96.6%.
Under “relative binding score”, `V44P` is recorded as -1.56%.
For `E125T`, “relative binding score” read 97.7%.
Under “relative binding score”, `N22Y` is recorded as 99.5%.
Under “relative binding score”, `G23P` is recorded as 86.3%.
`L29D`: “relative binding score” 9.77%.
For `N77I`, “relative binding score” read 104%.
Under “relative binding score”, `T101S` is recorded as 96.7%.
`S11V` — result for “relative binding score”: 106%.
`H110G` — result for “relative binding score”: 72.6%.
For `F157D`, “relative binding score” read 5.96%.
`E14N`: “relative binding score” 94.5%.
`I133H` — result for “relative binding score”: 108%.
For `T6D`, “relative binding score” read 101%.

For quick reference, copied from above (set 1):
The log2 enrichment of `UGGGAGGUGGAUUUUGUUUAUUUUUUUAGCUCAUUUCCAGGGGUGGGAAUUUUUUUUUAAUAUGUCUCAUGAAUAAAGUUGUUUUUGAAA` is reported as 0.96.
With `CUCAAGUCCUGUGCUACACAUCGUAUGUACCGAAUCGGGGAGGGAGGGGAGGGGAAAGUAUUAUGUUACGCCGUUCGGAUCUGCACUUCC` the log2 enrichment was 0.885.
`UAACUUUAGAGGAGGAUCUGAUGGAUAUGGCAGUGGACGUGGAUGUGGGGAUGGCUAUAAUGGGUAUGGAGGAGGACCUGGAGGUGGCAA` has a log2 enrichment of -0.578.
`UAACUUUAGAGGAGGAUCUGAUGGAUAUGGCCGUGGACGUGGAUUUGGGGAUGGCUAUAAUGGGUAUGGAGGAGGACCUGGAGGUGGCAA` gave a log2 enrichment of -0.699.
